Results collected from several papers.
Protocols differ between the studies behind these lines. “And” joins repeats or separate records; there may be more than shown. ± gives the spread as reported.
Sequence of UniProt Q9H4A3 (whole entry, looked up): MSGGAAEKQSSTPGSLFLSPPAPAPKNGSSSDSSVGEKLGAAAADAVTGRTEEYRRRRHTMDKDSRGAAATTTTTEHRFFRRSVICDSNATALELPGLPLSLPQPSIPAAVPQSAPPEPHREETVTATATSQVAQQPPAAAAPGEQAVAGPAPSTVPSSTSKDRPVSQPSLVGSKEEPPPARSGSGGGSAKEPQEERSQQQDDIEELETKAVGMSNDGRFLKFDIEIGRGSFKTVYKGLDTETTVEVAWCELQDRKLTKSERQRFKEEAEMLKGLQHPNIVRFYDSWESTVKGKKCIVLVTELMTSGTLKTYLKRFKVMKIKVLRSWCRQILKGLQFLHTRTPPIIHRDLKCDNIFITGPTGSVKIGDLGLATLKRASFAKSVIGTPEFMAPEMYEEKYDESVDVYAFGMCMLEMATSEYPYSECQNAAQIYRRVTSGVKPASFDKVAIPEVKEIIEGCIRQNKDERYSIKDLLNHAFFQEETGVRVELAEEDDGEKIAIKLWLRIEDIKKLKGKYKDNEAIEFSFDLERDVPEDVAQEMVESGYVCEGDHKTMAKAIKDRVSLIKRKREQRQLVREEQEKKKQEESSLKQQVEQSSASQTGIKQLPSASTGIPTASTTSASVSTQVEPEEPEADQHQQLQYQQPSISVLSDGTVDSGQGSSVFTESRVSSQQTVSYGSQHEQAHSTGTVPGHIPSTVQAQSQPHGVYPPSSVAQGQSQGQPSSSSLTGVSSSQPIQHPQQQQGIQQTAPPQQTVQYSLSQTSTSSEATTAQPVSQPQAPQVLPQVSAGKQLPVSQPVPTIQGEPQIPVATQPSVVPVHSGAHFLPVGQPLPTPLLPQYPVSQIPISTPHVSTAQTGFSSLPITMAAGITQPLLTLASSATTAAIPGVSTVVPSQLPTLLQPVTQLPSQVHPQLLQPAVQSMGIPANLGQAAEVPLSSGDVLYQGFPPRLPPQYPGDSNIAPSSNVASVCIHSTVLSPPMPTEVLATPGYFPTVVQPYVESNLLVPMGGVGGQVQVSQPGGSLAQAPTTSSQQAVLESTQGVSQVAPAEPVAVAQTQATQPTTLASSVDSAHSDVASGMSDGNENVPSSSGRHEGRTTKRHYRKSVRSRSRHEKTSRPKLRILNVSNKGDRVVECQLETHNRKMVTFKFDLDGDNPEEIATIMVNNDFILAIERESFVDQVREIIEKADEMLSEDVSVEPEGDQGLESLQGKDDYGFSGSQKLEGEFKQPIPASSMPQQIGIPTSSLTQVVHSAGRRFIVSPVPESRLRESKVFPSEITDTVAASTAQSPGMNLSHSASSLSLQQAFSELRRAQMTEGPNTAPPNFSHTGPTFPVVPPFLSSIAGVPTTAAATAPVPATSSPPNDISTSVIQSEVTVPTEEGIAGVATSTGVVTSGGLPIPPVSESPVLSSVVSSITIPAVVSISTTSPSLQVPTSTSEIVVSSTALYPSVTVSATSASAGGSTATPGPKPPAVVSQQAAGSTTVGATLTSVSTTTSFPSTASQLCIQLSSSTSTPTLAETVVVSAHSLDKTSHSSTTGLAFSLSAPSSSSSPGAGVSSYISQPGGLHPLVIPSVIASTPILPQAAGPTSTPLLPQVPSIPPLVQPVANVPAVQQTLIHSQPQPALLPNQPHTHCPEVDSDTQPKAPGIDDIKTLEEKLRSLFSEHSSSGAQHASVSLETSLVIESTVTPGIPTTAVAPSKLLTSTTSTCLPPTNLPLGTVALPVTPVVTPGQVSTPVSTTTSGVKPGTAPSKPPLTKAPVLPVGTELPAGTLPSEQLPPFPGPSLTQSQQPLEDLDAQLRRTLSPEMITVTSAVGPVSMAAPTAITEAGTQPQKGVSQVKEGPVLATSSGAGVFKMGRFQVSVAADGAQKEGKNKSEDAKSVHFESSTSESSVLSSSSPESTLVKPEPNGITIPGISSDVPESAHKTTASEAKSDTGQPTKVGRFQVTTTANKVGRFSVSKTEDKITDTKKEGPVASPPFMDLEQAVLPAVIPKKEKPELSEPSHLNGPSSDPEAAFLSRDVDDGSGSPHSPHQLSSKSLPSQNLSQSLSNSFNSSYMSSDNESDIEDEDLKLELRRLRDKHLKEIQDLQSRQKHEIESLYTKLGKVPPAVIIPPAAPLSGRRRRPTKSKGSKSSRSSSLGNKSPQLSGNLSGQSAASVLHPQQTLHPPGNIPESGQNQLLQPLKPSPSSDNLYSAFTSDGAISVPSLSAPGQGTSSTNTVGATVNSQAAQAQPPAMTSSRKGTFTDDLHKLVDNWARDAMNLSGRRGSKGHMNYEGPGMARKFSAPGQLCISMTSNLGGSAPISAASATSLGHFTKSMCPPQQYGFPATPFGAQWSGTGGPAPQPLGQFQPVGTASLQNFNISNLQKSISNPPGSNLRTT
Sequence of UniProt Q92731 (whole entry, looked up): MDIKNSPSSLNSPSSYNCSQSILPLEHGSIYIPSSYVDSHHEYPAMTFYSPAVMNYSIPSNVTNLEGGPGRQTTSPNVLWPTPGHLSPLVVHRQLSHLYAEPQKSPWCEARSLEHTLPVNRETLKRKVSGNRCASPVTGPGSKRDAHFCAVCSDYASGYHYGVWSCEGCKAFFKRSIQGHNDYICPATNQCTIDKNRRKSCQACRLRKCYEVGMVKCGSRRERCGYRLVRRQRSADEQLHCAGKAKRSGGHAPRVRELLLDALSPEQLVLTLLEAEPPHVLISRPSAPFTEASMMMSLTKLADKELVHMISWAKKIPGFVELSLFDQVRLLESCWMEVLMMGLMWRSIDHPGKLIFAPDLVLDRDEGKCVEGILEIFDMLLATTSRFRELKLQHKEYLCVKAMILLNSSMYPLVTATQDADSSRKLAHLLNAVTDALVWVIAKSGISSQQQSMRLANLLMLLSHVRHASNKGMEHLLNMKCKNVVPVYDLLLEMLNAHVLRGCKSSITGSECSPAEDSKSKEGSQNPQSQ
Sequence of UniProt Q8NCC3 (whole entry, looked up): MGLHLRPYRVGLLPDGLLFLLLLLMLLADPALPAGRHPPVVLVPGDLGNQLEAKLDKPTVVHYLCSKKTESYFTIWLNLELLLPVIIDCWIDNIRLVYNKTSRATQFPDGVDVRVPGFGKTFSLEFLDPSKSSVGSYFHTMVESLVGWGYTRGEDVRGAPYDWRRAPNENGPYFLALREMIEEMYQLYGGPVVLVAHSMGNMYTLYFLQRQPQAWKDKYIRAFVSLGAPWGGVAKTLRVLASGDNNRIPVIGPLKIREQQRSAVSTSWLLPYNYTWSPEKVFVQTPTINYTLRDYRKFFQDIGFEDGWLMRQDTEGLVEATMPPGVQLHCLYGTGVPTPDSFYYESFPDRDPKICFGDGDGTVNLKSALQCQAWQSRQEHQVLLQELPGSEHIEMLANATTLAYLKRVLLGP

| Compound | tested on | test | test system | setting | how to read | quantity | result |
| --- | --- | --- | --- | --- | --- | --- | --- |
| C[C@@H](O)[C@@H](CO)NC(=O)[C@@H](CCCNC(=N)N)NC(=O)[C@@H]1CCCN1C(=O)[C@@H]1CSSC[C@H](NC(=O)[C@H](Cc2ccccc2)NC(=O)CN2CCN(CC(=O)O)CCN(CC(=O)O)CCN(CC(=O)O)CC2)C(=O)N[C@@H](Cc2ccc(O)cc2)C(=O)N[C@@H](Cc2ccccc2)C(=O)N[C@@H](CCC(N)=O)C(=O)N[C@@H](CC(N)=O)C(=O)N1 [gallium-68 labelled] | – | – | Wistar rat, kidneys | intravenous, 8 MBq, 120 min, group mean | – | tissue uptake | 1.71 %ID/g |
| CCCNCCc1c[nH]c2cccc(O)c12.CCCNCCc1c[nH]c2cccc(O)c12.O=C(O)/C=C/C(=O)O | – | – | C57BL/6J mice | subcutaneous, 1 mg/kg, 30 min | – | distance travelled | 2240 ± 226 cm |
| C[C@]12CC[C@H]3[C@@H](CC=C4CC(O)CC[C@@]43CO)[C@@H]1CCC2O (stereo partly shown) | – | measured: CCL3 | rat, GAN diet-induced MASH, plasma | dose not given | reference: GAN diet plus vehicle | fold reduction | ~2.2 fold |
| COc1cc2c(Oc3ccc4[nH]c(C)cc4c3F)ccnc2cc1OCC1(N)CC1 | – | – | paediatric recurrent refractory sarcoma | 10 mg | – | grade 3 intestinal obstruction | 0% |
| O=C(c1ccc(Cl)cc1)N1CCN2C(=O)N(OC(=O)N3CCOc4ccccc43)C(=O)C2C1 (stereo not shown) | PLA2G15 (Homo sapiens, UniProt Q8NCC3) | enzyme activity, inhibitor, MS-based ABPP | SW-620 in situ | 10 µM, 2 h, 37 °C | reference: compound over DMSO, lower = stronger inhibition | median ratio | 1.13 |
| CC[C@H](C)[C@@H]1NC(=O)[C@@H]2CCCN2C(=O)[C@H](CC(C)C)NC(=O)[C@H](CC(C)C)NC(=O)CNC(=O)[C@@H](NC(=O)[C@@H](NC(=O)[C@H](CC(=O)O)NC(=O)CNC(=O)[C@@H](NC(=O)[C@H](C)NC(=O)CNC(=O)[C@H](CCCCN)NC(=O)[C@H](CC(C)C)NC(=O)[C@H](CC(C)C)NC(=O)[C@H](CCCCN)NC(=O)CNC(=O)[C@@H](NC(=O)[C@@H](N)CC(C)C)C(C)C)C(C)C)C(C)C)CSSC[C@@H](C(=O)O)NC1=O | – | RNA-seq, measured: Rel mRNA | mouse traumatic brain injury, frontal cortex and hippocampus | dose not given | reference: TBI plus compound vs TBI | log2 fold change | -1.48 |
| CC(C)(C)NCCc1c[nH]c2cccc(O)c12.CC(C)(C)NCCc1c[nH]c2cccc(O)c12.O=C(O)/C=C/C(=O)O | – | – | C57BL/6J mice | subcutaneous, 0.3 mg/kg | – | head twitch count | 9 ± 1.6 |
| COc1cc(CCNCc2ccccc2O)c(OC)cc1C#N | – | – | male C57BL/6J mice | subcutaneous, 30 min session | – | ED50 | 0.53 mg/kg |
| CCCCNCCc1c[nH]c2cccc(O)c12.O=C(O)/C=C/C(=O)O | – | – | C57BL/6J mice | subcutaneous, 0.1 mg/kg, 30 min | – | distance travelled | 2390 ± 201 cm |
| CC[C@H](C)[C@H](NC(=O)[C@H](Cc1ccccc1)NC(=O)[C@H](CCC(=O)O)NC(=O)[C@H](CCCNC(=N)N)NC(=O)[C@H](C)NC(=O)[C@H](C)NC(=O)[C@H](CCC(N)=O)NC(=O)[C@H](CCC(=O)O)NC(=O)[C@H](CCC(=O)O)NC(=O)[C@H](CC(C)C)NC(=O)[C@H](Cc1ccc(O)cc1)NC(=O)[C@H](CO)NC(=O)[C@H](CO)NC(=O)[C@@H](NC(=O)[C@H](CC(=O)O)NC(=O)[C@H](CO)NC(=O)[C@@H](NC(=O)[C@H](Cc1ccccc1)NC(=O)[C@@H](NC(=O)CNC(=O)[C@H](CCC(=O)O)NC(=O)[C@H](C)NC(=O)CCc1c[nH]cn1)[C@@H](C)O)[C@@H](C)O)C(C)C)C(=O)N[C@@H](C)C(=O)N[C@@H](Cc1c[nH]c2ccccc12)C(=O)N[C@@H](CC(C)C)C(=O)N[C@H](C(=O)N[C@@H](CCCNC(=N)N)C(=O)NCC(=O)N[C@@H](CCCNC(=N)N)C(=O)N[C@@H](CCCCNC(=O)COCCOCCNC(=O)COCCOCCNC(=O)CC[C@H](NC(=O)CCCCCCCCCCCCCCCCC(=O)O)C(=O)O)C(=O)NCC(=O)NCC(=O)N[C@@H](CO)C(=O)N[C@@H](CCCCNc1c(NCCCCCN(O)C(=O)CCC(=O)NCCCCCN(O)C(=O)CCC(=O)NCCCCCN(O)C(C)=O)c(=O)c1=O)C(=O)O)C(C)C [zirconium-89 labelled] | – | – | rat, kidney | sc, 3 nmol/kg, 4 h, ex vivo | – | tissue uptake | 1.39 %ID/g |
| CC1(C)C(C(=O)c2cn(CCCCCF)c3ccccc23)C1(C)C | – | Δ9-THC discrimination | C57BL/6J male mice | – | reference: Δ9-THC | potency | 1.5 fold |
| NCCc1ccc(Oc2ccc(O)cc2)c(I)c1 | – | – | TAAR1 knock-out mice | ip, 50 mg/kg, 60 min | reference: saline | maximum body temperature change | -5.6 ± 1 °C |
| CN1C(=O)CN=C(c2ccccc2)c2cc(Cl)ccc21 | – | food-maintained responding | Sprague-Dawley rat | intraperitoneal, 3 mg/kg, 30 min, acute dependence model | reference: control | response rate | ~40% |
| NCC1(CC(=O)O)CCCCC1 | – | – | mouse, formalin paw test | oral, 300 mg/kg, 45 min before formalin, late phase | direction not given | licking score | 4.4 |
| NCC1(CC(=O)O)CCCCC1 | – | thermal hyperalgesia | rat, chronic constriction injury | oral, tested 10 to 300 mg/kg | – | minimum efficacious dose | 30 mg/kg |
| CC(C)NCCc1c[nH]c2cccc(O)c12.O=C(O)/C=C/C(=O)O | – | – | C57BL/6J mice | subcutaneous, 10 mg/kg | – | head twitch count | 23.2 ± 1.7 |
| C=CCN1CC[C@]23c4c5ccc(O)c4O[C@H]2C(=O)CC[C@@]3(O)[C@H]1C5 | – | antinociception, hot plate | male ICR-CD1 mice | subcutaneous, 5 mg/kg, 60 min | – | maximum possible effect | 11.6% and 8.1% and 5.37% and 2.19% and -29.5% and 7.8% |
| COc1cc(Nc2ncc(F)c(Nc3ccc4c(n3)NC(=O)C(C)(C)O4)n2)cc(OC)c1OC | ESR2 (Homo sapiens, UniProt Q92731) | – | – | – | – | IC50 | > 10 µM |
| O=C(O)/C=C/C(=O)O.Oc1cccc2[nH]cc(CCNC3CCCCC3)c12 | – | – | C57BL/6J mice | subcutaneous, 0.03 mg/kg | – | head twitch count | 5.7 ± 0.6 |
| CCNC(CC)C(=O)c1ccc2c(c1)OCO2 (stereo not shown) | – | locomotor activity | C57BL/6J mice, male | subcutaneous, total distance travelled | – | ED50 | 2.11 ± 0.13 mg/kg |
| CCCC(C(=O)c1ccc2c(c1)OCO2)N1CCCC1.Cl (racemic) | – | HPLC-ECD | rat, striatum postmortem | subcutaneous, 4 mg/kg | – | dopamine level | no effect |
| C[C@H]1CN(c2n[nH]c3nc(N[C@H]4CC[C@H](NS(=O)(=O)CCC(F)(F)F)CC4)ncc23)CCO1 | WNK1 (Homo sapiens, UniProt Q9H4A3) | inhibitor, Kinobeads competition profiling | – | 0.032 µM | reference: vehicle | relative abundance | 1.11 |

Some of these lines once more:
| Compound | tested on | test | test system | setting | how to read | quantity | result |
| --- | --- | --- | --- | --- | --- | --- | --- |
| CC1(C)C(C(=O)c2cn(CCCCCF)c3ccccc23)C1(C)C | – | Δ9-THC discrimination | C57BL/6J male mice | – | reference: Δ9-THC | potency | 1.5 fold |
| O=C(O)/C=C/C(=O)O.Oc1cccc2[nH]cc(CCNC3CCCCC3)c12 | – | – | C57BL/6J mice | subcutaneous, 0.03 mg/kg | – | head twitch count | 5.7 ± 0.6 |
| O=C(c1ccc(Cl)cc1)N1CCN2C(=O)N(OC(=O)N3CCOc4ccccc43)C(=O)C2C1 (stereo not shown) | PLA2G15 (Homo sapiens, UniProt Q8NCC3) | enzyme activity, inhibitor, MS-based ABPP | SW-620 in situ | 10 µM, 2 h, 37 °C | reference: compound over DMSO, lower = stronger inhibition | median ratio | 1.13 |
